# Measurements collected from several papers.
# Parts stem from different laboratories: compare values within a part only.

# Study 1
# Target: RING finger protein unkempt homolog, zinc fingers 1-6, GST-SBP tag (UNK, Homo sapiens, UniProt Q9C0B0, residues 30-357)
# Technique: RNA Bind-n-Seq
# Form: RNA
# Sample: in vitro
# Concentration: not given
# Notes: RNA with constant flanks, ends assumed
# Baseline: input RNA pool
# Direction: higher = stronger binding
# Construct (chain): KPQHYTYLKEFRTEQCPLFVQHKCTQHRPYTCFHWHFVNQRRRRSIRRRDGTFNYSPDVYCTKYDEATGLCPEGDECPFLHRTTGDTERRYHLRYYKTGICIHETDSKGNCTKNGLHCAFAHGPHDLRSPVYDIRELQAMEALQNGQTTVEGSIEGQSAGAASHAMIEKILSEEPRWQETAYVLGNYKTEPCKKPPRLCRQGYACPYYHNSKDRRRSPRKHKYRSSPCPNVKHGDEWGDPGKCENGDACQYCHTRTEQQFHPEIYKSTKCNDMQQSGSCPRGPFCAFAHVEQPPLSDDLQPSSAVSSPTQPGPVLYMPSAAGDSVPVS
Strand,bound/input enrichment
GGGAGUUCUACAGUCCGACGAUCUCUUGUUCCUCCAGCCUAAGUGCUCUGAGCCUGGAUGAGCCAUUUAUACAGAAAGAUGCCGAAUUAAGAAUCAUGCCUCCAGUUCAGGAAAACGACAAUGGGAAUGAAACUGAAUCAGAACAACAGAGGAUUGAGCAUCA,0.132 ratio
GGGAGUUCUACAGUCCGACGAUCCAGAUUGGGAAAAUGAGGUACGUUAGUGUUCGCGAUUUUAAAGGCAAAGUGCUAAUUGAUAUCCGAGAAUAUUGGAUGGAUCCUGAAGGUGAAAUGAAACCAGGAAGAAAAGGUAUUUCUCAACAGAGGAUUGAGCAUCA,0.151 ratio
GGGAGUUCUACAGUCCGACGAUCGGCGCGCGGAGGGGAAAUGGCUGCCGAAAACAAGCCGGAAGAUGAUCAUGGGAACAGCAACCGCCGUCAUGUAAAAAUCUUUUUACCGAAAAAGCUGCUUGAAUGUCUGCCGAAAUGUUCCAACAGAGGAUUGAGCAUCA,0.129 ratio
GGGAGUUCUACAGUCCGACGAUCAAAAGAGAAAAUGGUGCUAGAGACAAGUAGUUUAUUUAGUAAGCAGUGUUUUUAUUCCUCCGUCCGAUUUUAAGCUGCUUUUUGUCUUCAGAAGCUUUUAAAAAGAAAAGCGAAUUAGGUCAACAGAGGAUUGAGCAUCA,1.96 ratio
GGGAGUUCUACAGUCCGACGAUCAAAGUCUCCAAUUUGGUUUUCAACCUUAUCUACAAGGUUGAAGAAUUCACUGUGUUUUUCCCGGUUUCAGAGCCACUUGAUGUCUGCUACAAUGAGCUUGUGCAGUAGGUGCUAUAGAUCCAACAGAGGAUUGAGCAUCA,0.374 ratio
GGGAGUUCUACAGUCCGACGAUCAGCAGUCAGCCCGCGCGCCGGCCGGCUCCGUUAUGGCGACCCGCAGCCCUGGCGUCGUGAUCCGUGAUGAUGAACCAGGUUAUGACCUUGAUUUAUUUUGCAUACCUAAUCAUUAUGCUGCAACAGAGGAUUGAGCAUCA,0.0995 ratio
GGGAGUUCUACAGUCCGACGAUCGACGUAUUUUCUGUGUAAUUCUCUUGUUCUUAUACUACCUGCAUUAUCUUUAUGUCACUGCCGCAAAUGCCUAUCAUAAGUCAACUCUCAGGAGCCAUAAUGGGACAAGCUAAUAACUAGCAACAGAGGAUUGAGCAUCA,0.174 ratio
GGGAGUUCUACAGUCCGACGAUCAAUUCAAUGGUUGAGGGUUCAGAACUCAAAAAGGUUCGCUCCAACUCUAGAAUUUAUCACCGGUACUUUUUACUGGAUGCUGACAUGCAGAGCCUAAGGUGGGAGCCAUCUAAGAAGGAUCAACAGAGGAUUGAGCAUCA,0.325 ratio

# Study 2
# Target: Ras GTPase-activating protein-binding protein 1, RRM domain (G3BP1, Homo sapiens, UniProt Q13283)
# UniProt Q13283, sequence (whole entry, looked up): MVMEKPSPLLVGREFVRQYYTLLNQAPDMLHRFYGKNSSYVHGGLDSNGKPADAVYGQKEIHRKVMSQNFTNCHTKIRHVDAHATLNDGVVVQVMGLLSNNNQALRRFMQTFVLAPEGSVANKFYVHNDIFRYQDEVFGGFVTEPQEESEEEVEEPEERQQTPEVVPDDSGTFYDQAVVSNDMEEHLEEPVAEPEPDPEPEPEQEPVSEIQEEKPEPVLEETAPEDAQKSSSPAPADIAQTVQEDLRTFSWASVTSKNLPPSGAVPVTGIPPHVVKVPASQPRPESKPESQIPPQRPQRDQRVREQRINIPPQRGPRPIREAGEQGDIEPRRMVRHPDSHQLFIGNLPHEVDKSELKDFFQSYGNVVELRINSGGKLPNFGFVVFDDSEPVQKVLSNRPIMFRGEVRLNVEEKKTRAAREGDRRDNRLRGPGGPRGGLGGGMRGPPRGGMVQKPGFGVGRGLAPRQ
# Technique: RNA Bind-n-Seq
# Form: RNA
# Sample: in vitro
# Concentration: 1 µM
# Notes: whole 134-nt RNA, ends assumed
# Added: 150 mM KCl
# Baseline: input library
# Direction: higher = stronger binding
Strand,log2 enrichment
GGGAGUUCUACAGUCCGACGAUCAGUCCUGUGCUACACAUCGUAUGUACCGAAUCGGGAAAAAGGGAAAAAAAGGGAGGGAAAGUAUUAUGUUACGCCGUUCGGAUCUGCACUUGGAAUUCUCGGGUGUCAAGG,0.755
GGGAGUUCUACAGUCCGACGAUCUAACUUUAGAGGAGGAUCUGAUGGAUAUGGCAGUGGACGUGGAUUUGGGGAUGGCUAUAAUGGGUAUGGAGGAGGGCCUGGAGGUGGCAAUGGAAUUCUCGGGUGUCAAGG,-0.11
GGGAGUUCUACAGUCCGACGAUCUGGGAGGUGAAUUUUGUUUAUUUUUUUAGCUCAUUUCCAGGGGUGGGAAUUUUUUUUUAAUAUGUGUCAUGAAUAAAGUUGUUUUUGAAAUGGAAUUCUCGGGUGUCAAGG,1.5
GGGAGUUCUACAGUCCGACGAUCUGGGAGGUGGAUUUUGUUUAUUUUUUUAGCUCAUUUCCACGGGUGGGAAUUUUUUUUUAAUAUGUGUCAUGAAUAAAGUUGUUUUUGAAAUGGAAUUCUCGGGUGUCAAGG,1.87
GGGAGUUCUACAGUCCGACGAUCGCAGGAAGUAAAAACAAAUGGAAAUGCUUCGGAUAGUGGCAGGGGUGGGGGUUGCUAAGGAAAGUGUGGGAUGGGAGUGGGUAAAGAGUUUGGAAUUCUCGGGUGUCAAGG,1.15
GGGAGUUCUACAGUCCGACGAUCUUUUGAGGAAAGGAUGAAGGAGCUCAGAGAAGAGGUAAGGGUCUCCUAUCCUUCCCCUCUCCCCCAGAUUUGAGUUUUAUGUUAUGAAUCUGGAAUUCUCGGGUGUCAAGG,-0.113
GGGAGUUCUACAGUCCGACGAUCAAGUCCUGUGCUACACAUCGUAUGUACCGAAUCGGGGAAAGGGAAAGGGGAAAGGGAAAGUAUUAUGUUACGCCGUUCGGAUCUGCACUUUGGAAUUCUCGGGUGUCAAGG,0.358
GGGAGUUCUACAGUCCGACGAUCAAGUCCUGUGCUACACAUCGUAUGUACCGAAUCGGGUUUGGGGUUUGGGUUUGGGGAAAGUAUUAUGUUACGCCGUUCGGAUCUGCACUUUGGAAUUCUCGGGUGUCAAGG,0.612

# Study 3
# Target: Max dimerization protein 1, bHLH-zipper, MAX partner unstated (MXD1, Homo sapiens, UniProt Q05195, residues 56-136)
# Technique: protein-binding microarray
# Form: double-stranded DNA, one strand shown
# Sample: in vitro
# Concentration: not given
# Notes: k-mer, scored over probes, only values ≥0.25
# Direction: higher = stronger binding
# Construct (chain): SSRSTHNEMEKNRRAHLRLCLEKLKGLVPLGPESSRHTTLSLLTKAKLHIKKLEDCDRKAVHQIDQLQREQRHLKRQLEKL
Strand,E-score
AGCATGAT,0.261
ACGTGTGA,0.392
GCATGGAC,0.363
CGTGACTA,0.289
ATGTGCAC,0.312

# Study 4
# Cell line: HEK-293T/ACE2
# Concentration: 10 µM
# Time: 16 h
# Baseline: vehicle
SMILES,viability
Cc1cccc(Nc2ccncc2S(=O)(=O)NC(=O)NC(C)C)c1,99.5%
O=C(O)Cc1ccccc1Nc1c(Cl)cccc1Cl,101%
COc1cc(C(C)=O)ccc1OCCCN1CCC(c2noc3cc(F)ccc23)CC1,102%
O=c1[nH]c(=O)n([C@H]2C[C@H](O)[C@@H](CO)O2)cc1C(F)(F)F,77.8%

# Study 5
# Target: Replicase polyprotein 1ab, nsp13 helicase (rep, Severe acute respiratory syndrome coronavirus 2, UniProt P0DTD1)
# Action: inhibitor
# Concentration: 20 µM
SMILES,inhibition [%]
CS(=O)(=O)N1CCc2c(-c3cnc(N)nc3)nc(N3CCOCC3)nc21,7.6
CN1C(=O)CCS(=O)(=O)C1c1ccc(Cl)cc1 (stereo not drawn),5.96
CC1(COc2ccc(CC3SC(=O)NC3=O)cc2)CCCCC1 (stereo not drawn),9.8
O=C(Cc1ccc(Cl)c(Cl)c1)N1CCCCC1CN1CCCC1 (stereo not drawn),-0.03
COc1ccc(C(Cl)=C(c2ccc(OC)cc2)c2ccc(OC)cc2)cc1,0.67
Cc1csc(S(=O)(=O)N(CC(C)C)c2cc3c(cc2OCc2ccc(C(=O)O)cc2)CCC3)n1,1.76
CC/C=C(\C(=O)N[C@@H]1C(=O)N2C(C(=O)OCOC(=O)C(C)(C)C)=C(COC(N)=O)CS[C@H]12)c1csc(N)n1,7.16
O=C1c2c(O)cc(O)cc2O[C@H](c2ccc(O)c(O)c2)[C@H]1O,5.82
C=CC(=O)N1CCC[C@@H](n2nc(-c3ccc(Oc4ccccc4)cc3)c3c(N)ncnc32)C1,-0.23
CCOC(=O)Nc1ccc2c(c1)N(C(=O)CN(C)C)c1ccccc1CC2,2.28
Cc1onc(-c2c(Cl)cccc2Cl)c1C(=O)N[C@@H]1C(=O)N2[C@@H]1SC(C)(C)[C@@H]2C(=O)O,5.91
C[C@]12CCC(=O)C=C1CC[C@@H]1[C@@H]2[C@@H](O)C[C@]2(C)C(=O)CC[C@@H]12,4.49
CSc1nc(NC2CCCC2)c([N+](=O)[O-])c(NC2CCCC2)n1,3.33
Cc1cc(C)c2c(N)c(C(=O)NCc3ccc(Cl)cc3)sc2n1,10.1
O=C(O[C@H]1C[N+]2(CCCOc3ccccc3)CCC1CC2)C(O)(c1cccs1)c1cccs1,6.3
C=CCN1C[C@H](C)N([C@H](c2ccc(C(=O)N(CC)CC)cc2)c2cccc(O)c2)C[C@H]1C,10.8
N[C@@H](C(=O)O)c1ccc(C(=O)O)c(C(=O)O)c1,-0.53
COc1cc(C(=S)N2CCOCC2)cc(OC)c1OC,-10.2
O=C(O)C(O)=Cc1c[nH]c2ccccc12,2.66
O=C(O)[C@H](CC(=O)N1C[C@H]2CCCC[C@H]2C1)Cc1ccccc1,2.44
C[C@@H]1[C@H](O)[C@@H](C)/C=C/C=C/CC/C=C/C=C/C=C/C=C/[C@H](O[C@@H]2O[C@H](C)[C@@H](O)[C@H](N)[C@@H]2O)C[C@@H]2O[C@](O)(C[C@@H](O)[C@H](O)CC[C@@H](O)C[C@@H](O)C[C@@H](O)CC(=O)O[C@H]1C)C[C@H](O)[C@H]2C(=O)O,6.67
c1ccc([C@H]2CN3CCSC3=N2)cc1,-2.09
O=C(NCCN1CCOCC1)c1ccc(Cl)cc1,9.94
Cc1ccc(C(=O)C(C)CN2CCCCC2)cc1 (stereo not drawn),9
NS(=O)(=O)c1cc(C2(O)NC(=O)c3ccccc32)ccc1Cl (stereo not drawn),-6.69

# Mixed results
Structure (SMILES),target,assay,setting,endpoint,result
S=C=NCc1ccccc1,"Replicase polyprotein 1ab, main protease (rep, Severe acute respiratory syndrome coronavirus 2, UniProt P0DTD1)","enzyme activity, inhibitor",added: DTT,IC50,> 20 µM
